Experimental data from different studies.
A part holds a random share of what one study measured. Changes are numbered by the printed parent chain.

Sample 1 — technique: DHFR PCA, deep sequencing; matrix: yeast; with: (+)-ABA 2500 µM; baseline: wild-type fitted maximum; reading: higher = stronger binding
Target: ABI1, truncated, D143A, DHFR fusion (Arabidopsis thaliana)
Setting: methotrexate growth selection, single substitutions
Starting sequence: PYL1, truncated, DHFR fusion (Arabidopsis thaliana); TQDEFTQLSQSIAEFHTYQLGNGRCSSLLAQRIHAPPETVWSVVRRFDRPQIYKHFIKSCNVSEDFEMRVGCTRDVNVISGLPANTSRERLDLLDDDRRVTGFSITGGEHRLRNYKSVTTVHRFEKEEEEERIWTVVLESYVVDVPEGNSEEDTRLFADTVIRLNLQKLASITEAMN
| Variant | relative binding score [%] |
| --- | --- |
| S140R | 48.9 |
| C25W | 74.7 |
| Y115W | 88.2 |
| T119S | 92.9 |
| G71V | 32.2 |
| Y53F | 94.4 |
| T119A | 83.7 |
| R46G | 97.5 |
| Y53A | 78.1 |
| E89C | 12.9 |
| V142R | 91.2 |
| E38F | 80.6 |
| R99T | 99.4 |
| S140Y | 38.8 |
| C25E | 65.9 |

Sample 2 — technique: RNA Bind-n-Seq; form: RNA; matrix: in vitro; concentration: not given; baseline: input RNA pool; reading: higher = stronger binding
Target: RING finger protein unkempt homolog, zinc fingers 1-6, GST-SBP tag (UNK, Homo sapiens, UniProt Q9C0B0, residues 30-357)
UniProt Q9C0B0, sequence (30-357, looked up): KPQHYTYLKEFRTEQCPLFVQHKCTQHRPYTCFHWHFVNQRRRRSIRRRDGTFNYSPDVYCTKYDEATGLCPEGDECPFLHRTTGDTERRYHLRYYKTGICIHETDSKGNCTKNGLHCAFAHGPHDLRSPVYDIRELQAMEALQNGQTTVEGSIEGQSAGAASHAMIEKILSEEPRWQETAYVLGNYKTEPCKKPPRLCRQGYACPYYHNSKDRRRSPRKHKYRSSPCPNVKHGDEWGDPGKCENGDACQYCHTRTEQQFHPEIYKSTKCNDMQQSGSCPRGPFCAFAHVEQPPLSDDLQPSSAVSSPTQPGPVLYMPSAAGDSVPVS
Setting: RNA with constant flanks, human and mouse sites, ends assumed
Shared flanks, not repeated: GGGAGUUCUACAGUCCGACGAUC … CAACAGAGGAUUGAGCAUCA
| Sequence | bound/input enrichment [ratio] |
| --- | --- |
| AACAGGCACCCCCAGCUCACAUCACCAGCUCAUCCUUUGGUAGCCAUAGCAGCCCCAACUUUAGCCCCCACUCAUCCCUCCGGGGGCUUGCCUUUCCUUGACAGUUUGGGGGUCUGCCUG | 0.177 |
| CCUGUUCUCAGUAAAGACCGCAACUUUCAUGUUUUCUUGGAAUAUGAUCAGGAUCUAAGUGUUAGACGGAAGAAUACCAAGGAGAUGUUUGGAGGCUUUUUUAAAAGUGUGGUGAAGAGC | 0.154 |
| UGUGUGACAUUUGCUGCAGAUGAACCCGUGUACAUUGCUGGUCAACAGGCUUUUUUCAACUAUUCUACAAGCAAAAGGAUCACUCGGCCAGGAAAUACUGAUGAUCCAUCAGGAGGCAAC | 0.138 |
| ACUUGCCGUGACUGCAGGAUGCUCUCAGCGCGCACUGACGCACUCACAGCCCACUCUGCCAUCCACGGGACCACCUCCAGGGUGUACUCCAGAGACAGGACUCUCAAACCACGUGACCUC | 0.125 |
| UUAAUGUGCAUUAUUAAAAAUAUUGAGUGAAGCUAAUUGUCAACUUUAUUAAGGAUUACUUUGUCUGCCCACCACCUAGUGUAAAAUAAAAUCAAGUAAUACAAUCUUAACUGUUGUGGC | 6.37 |
| AAUUUUGGAGGGCUGUGAUUUUUCCAGUAUUAAACAUGCAUGCAUUAAUCUUGCAGUUUAUUUUCUCAUUGUGUAUGUAUAUAUCGCUUUUCUCUGCAGCACGAUUUCUCUUUUGAUAAU | 0.211 |
| GUUCAAUAUAUUUAUAUGUACAUGCAUACAUAUAUAUCCCUUUACAUAUAUAUAUGUAUGUUGGUGUGAGUGUGUGUGUAUGUGUGGGUGUGUGUUGCAUACACAAAAUCAGGCACUUAC | 0.321 |
| GAUACAUACUUAUUUGUGAAUCAUAUCCCUGUAAGUAAGACAAGAAACACUUCCUCAUUCUAGGUACAUAAUACACCAGCUUUAGCUUGUACCGAUUUGUGAGGUGUUAAGAUUUUGAGG | 0.393 |

Sample 3 — technique: RNA Bind-n-Seq; form: RNA; matrix: in vitro; concentration: 200 nM; setting: whole 134-nt RNA, ends assumed; with: 150 mM LiCl; baseline: input library; reading: higher = stronger binding; library: 7-deaza-guanosine replaces G
Target: Ras GTPase-activating protein-binding protein 1, full length (G3BP1, Homo sapiens, UniProt Q13283)
UniProt Q13283, sequence (whole entry, looked up): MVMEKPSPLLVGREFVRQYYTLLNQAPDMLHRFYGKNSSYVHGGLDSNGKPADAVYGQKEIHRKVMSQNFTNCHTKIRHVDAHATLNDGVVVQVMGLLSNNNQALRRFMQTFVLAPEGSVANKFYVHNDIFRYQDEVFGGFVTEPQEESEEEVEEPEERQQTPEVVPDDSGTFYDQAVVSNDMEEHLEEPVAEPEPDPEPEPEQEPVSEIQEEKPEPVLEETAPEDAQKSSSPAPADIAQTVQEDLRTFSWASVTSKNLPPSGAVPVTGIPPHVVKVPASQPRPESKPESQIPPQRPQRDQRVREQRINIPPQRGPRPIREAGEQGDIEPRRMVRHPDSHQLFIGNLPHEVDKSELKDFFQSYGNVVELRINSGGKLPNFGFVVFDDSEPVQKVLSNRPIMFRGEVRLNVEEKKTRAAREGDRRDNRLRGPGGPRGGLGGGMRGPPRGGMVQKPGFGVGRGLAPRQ
Shared flanks, not repeated: GGGAGUUCUACAGUCCGACGAUC … UGGAAUUCUCGGGUGUCAAGG
| Sequence | log2 enrichment |
| --- | --- |
| GUCCUGUGCUACACAUCGUAUGUACCGAAUCGGGGUGGGGUUUUUGGGGAAAAAGGGGAAAGUAUUAUGUUACGCCGUUCGGAUCUGCAC | 0.115 |
| ACCAUGCAGGUGGGCAUCUUUGGGAAGUGGGGCAAGGGGGGGAUAGGGAGGGGGGUAACACUUUGGGAACAGGUGGUCCCAAGUCGUUUC | 0.306 |
| UCCUGUGCUACACAUCGUAUGUACCGAAUCGGUUUUUUGGUUUUUUGGGGUUUUUUGGGGAAAGUAUUAUGUUACGCCGUUCGGAUCUGC | -0.38 |
| GUCCUGUGCUACACAUCGUAUGUACCGAAUCGGGGUGGGGAAAGGGGAAAAAAAGGGGAAAGUAUUAUGUUACGCCGUUCGGAUCUGCAC | 0.457 |
| GUCCUGUGCUACACAUCGUAUGUACCGAAUCAAAUUUUUAAACCCCCAAACCCCCAAAAAAGUAUUAUGUUACGCCGUUCGGAUCUGCAC | 0.59 |
| AGUCCUGUGCUACACAUCGUAUGUACCGAAUCGGAAAAAGGGAAAAAGGGAAAAAGGAAAGUAUUAUGUUACGCCGUUCGGAUCUGCACU | -1.04 |
| CACAGACAACACGCACCCACACAGACACAGAGGGAAGGGGUUGGGAUGGGGACAGGGUGCACAGCAGGGCGGGGUAGGACCCCAAAACCU | -1.77 |
| CUCAAGUCCUGUGCUACACAUCGUAUGUACCGAAUCGGUGGUUUUUUUGGUGGAAAGUAUUAUGUUACGCCGUUCGGAUCUGCACUUCCA | 1.16 |

Further values, each from its own experiment
| Substance | target | assay | test system | conditions | how to read | measurement | value |
| --- | --- | --- | --- | --- | --- | --- | --- |
| PhoQ, residues 284 288 289 292 302 303 HSYLQF | PhoP, residues 12 14 15 18 19 NQGLL (Escherichia coli, UniProt P23836) | Sort-seq, measured: YFP reporter | E. coli | PhoQ-PhoP variant library, with: 10 µM Mg2+ | baseline: high Mg2+ state, higher = stronger signaling | fold induction | 2.58 |
